# Assay results of several laboratories.
# A part holds a random share of what one study measured. Substitutions count along the parent as printed.

# Set 1 — target: CCNE1, cyclin fold, Cln2 fusion (human); technique: yeast growth competition, sequencing; matrix: yeast; setting: strong parent motif; reference: not given; direction: higher = stronger binding
# Starting sequence: RBL1 docking peptide (human); GSAKRRLFGEDPP
Variant,normalised enrichment score
GSAKRWLFGEDPP [R6W],2.26
GSAKRRLFMEDPP [G9M],6.82
GSAKRRLFGSDPP [E10S],5.73
GSAKRPLFGEDPP [R6P],-0.28
GSAKRRLSGEDPP [F8S],0.0382
GFAKRRLFGEDPP [S2F],4.76
GSAKRALFGEDPP [R6A],2.52
GSAKRFLFGEDPP [R6F],2.81

# Set 2 — technique: universal PBM; form: double-stranded DNA, one strand shown; matrix: in vitro; tested at: 600 nM; direction: higher = stronger binding
# Target: Sal-like protein 4, full length isoform A (SALL4, Homo sapiens, UniProt Q9UJQ4, residues 1-1053)
# UniProt Q9UJQ4, sequence (whole entry, looked up): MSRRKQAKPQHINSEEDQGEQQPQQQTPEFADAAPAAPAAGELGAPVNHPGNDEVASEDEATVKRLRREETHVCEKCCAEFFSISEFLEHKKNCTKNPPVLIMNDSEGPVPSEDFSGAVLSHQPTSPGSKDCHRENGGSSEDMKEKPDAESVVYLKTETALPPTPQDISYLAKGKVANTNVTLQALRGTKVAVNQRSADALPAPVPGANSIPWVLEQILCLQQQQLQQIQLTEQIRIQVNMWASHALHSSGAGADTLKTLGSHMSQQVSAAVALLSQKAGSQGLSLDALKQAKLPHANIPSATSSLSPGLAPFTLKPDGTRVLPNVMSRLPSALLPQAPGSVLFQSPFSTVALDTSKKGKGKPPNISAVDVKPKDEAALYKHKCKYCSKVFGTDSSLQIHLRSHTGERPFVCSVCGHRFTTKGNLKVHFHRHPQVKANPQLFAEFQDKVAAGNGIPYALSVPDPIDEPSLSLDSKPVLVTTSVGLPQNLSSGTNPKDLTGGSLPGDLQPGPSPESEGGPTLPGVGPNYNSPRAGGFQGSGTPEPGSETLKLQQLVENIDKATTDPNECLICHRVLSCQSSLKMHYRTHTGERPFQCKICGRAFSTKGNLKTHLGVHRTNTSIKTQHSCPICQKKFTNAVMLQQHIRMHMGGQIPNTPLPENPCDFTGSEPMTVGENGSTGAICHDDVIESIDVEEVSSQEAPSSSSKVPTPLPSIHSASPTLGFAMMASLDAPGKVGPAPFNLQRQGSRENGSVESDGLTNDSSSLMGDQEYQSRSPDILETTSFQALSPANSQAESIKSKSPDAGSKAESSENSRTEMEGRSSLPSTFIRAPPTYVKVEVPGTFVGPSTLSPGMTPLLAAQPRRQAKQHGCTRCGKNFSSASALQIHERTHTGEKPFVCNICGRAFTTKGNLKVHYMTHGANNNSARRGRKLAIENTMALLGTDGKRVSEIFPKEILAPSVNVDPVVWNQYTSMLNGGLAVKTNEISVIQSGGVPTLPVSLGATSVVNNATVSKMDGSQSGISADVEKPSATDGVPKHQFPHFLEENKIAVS
# Setting: 8-mer, flanks averaged, mean of replicates
Strand,E-score
AGTGCCGG,-0.364
AGAGGTTA,0.224
ATGCGCAT,0.253
ACGAAAGA,0.168
GTGCCTTA,-0.0142
CTCTCATA,0.184
TCAAGGAA,0.0764
CCCCGTCC,-0.302
AATAGTGT,0.315
CGGGTGGC,-0.371
ACGCGGTC,-0.214

# Set 3 — technique: DHFR PCA, deep sequencing; matrix: yeast; added: (+)-ABA 1.4 µM; reference: wild-type fitted maximum; direction: higher = stronger binding
# Target: ABI1, truncated, D143A, DHFR fusion (Arabidopsis thaliana)
# Setting: methotrexate growth selection, single substitutions
# Starting sequence: PYL1, truncated, DHFR fusion (Arabidopsis thaliana); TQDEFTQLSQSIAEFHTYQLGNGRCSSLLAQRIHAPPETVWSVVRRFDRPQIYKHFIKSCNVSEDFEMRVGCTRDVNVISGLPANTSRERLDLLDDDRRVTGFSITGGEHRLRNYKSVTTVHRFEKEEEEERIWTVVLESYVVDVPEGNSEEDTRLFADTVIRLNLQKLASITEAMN; partner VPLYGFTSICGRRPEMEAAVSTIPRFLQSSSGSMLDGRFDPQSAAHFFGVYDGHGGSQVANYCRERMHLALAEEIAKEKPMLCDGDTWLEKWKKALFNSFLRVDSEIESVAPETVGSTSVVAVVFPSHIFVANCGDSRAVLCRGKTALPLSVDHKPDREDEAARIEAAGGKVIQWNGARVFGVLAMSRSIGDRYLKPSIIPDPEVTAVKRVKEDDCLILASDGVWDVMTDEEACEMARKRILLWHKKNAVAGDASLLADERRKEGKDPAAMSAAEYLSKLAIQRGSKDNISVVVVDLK
Variant,relative binding score [%]
S27W,16
T86Q,16.4
G23H,40.6
Q7S,64.1
S80F,39.8
F47W,10.1
V143A,8.12
T173I,19.5

# Further values, each from its own experiment
Substance,target,assay,system,setting,scale,endpoint,value
"PhoQ, residues 284 288 289 292 302 303 SMYGEC","PhoP, residues 12 14 15 18 19 IFFTR (Escherichia coli, UniProt P23836)","Sort-seq, item: YFP reporter",E. coli,"PhoQ-PhoP variant library, added: 10 µM Mg2+","reference: high Mg2+ state, higher = stronger signaling",fold induction,13.2

# Some of these lines once more (set 1):
Variant,normalised enrichment score
GSAKRRLSGEDPP [F8S],0.0382
GSAKRRLFGSDPP [E10S],5.73
GSAKRALFGEDPP [R6A],2.52
GSAKRFLFGEDPP [R6F],2.81
